{"data": "Published values from different studies", "note": "Parts stem from different laboratories: compare values within a part only. Changes are numbered by the printed parent chain."}
{"data": "Study 1", "target": "RNA binding protein fox-1 homolog 2, RRM domain, GST-SBP tag (RBFOX2, Homo sapiens, UniProt O43251-10, residues 100-194)", "technique": "RNA Bind-n-Seq", "form": "RNA", "sample": "in vitro", "concentration": "365 nM", "setting": "natural RNA segment, single round, ends assumed", "baseline": "no-protein control", "reading": "higher = stronger binding", "Construct (chain)": "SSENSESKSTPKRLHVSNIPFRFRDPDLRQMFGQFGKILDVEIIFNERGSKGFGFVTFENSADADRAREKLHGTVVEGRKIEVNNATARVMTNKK"}
{"Strand": "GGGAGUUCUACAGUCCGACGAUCAAUUGUAUGCUUUCAGUAUUGUGUUAUAUGUUUCUAUGGCAACUUUGAAGUCAGUGGUUUAGAAAUGAGAUACCAAUGUUAAUGAAAAGUAUGUACUCUUUGCUUUUGCAUGGAAUUCUCGGGUGCCAA", "RBNS enrichment (R)": 4.26}
{"Strand": "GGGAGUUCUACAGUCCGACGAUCUUGUCCAACACCAGCCCUGACCCAAGUCCAAAUGUUUACAGGGAGCCUCCUGCCUACCCCACUCUCUGCCGCUCGGAGGCCCCAAAGGAAAAAGCACAAGAAGCGUGAGAUGGAAUUCUCGGGUGCCAA", "RBNS enrichment (R)": 0.711}
{"Strand": "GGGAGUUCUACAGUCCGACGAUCCAGGCGUGUCACUUGAGGCCAGGAGUUCGAGACCAGCCUGGCCAACAUGAUGAAACCCCGUCUCUACUACAAAUACAAAAAUUAGCCGGGUGUGGUGGCACACGCCUGUAUGGAAUUCUCGGGUGCCAA", "RBNS enrichment (R)": 0.73}
{"Strand": "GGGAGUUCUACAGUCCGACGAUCAUUCUGUUAGAUUUUUUUAUUGGACUUACAUAAUGCCGUUUAUUUGAGAAACACAUAACAUCUCUCCUUUCUAUGAAAAAUUUUUUAAAAGGUGGUUAAAAUUGCCUUUAUGGAAUUCUCGGGUGCCAA", "RBNS enrichment (R)": 0.835}
{"Strand": "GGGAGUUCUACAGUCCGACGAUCCCCCCCAAGCCCCAACAGGAAGAAGGGAAAGGUGGGGAAGCUGACGCUCACUCAGUGCCCACUGGGUGCCAGGCUCUGGGCUCAACCCUCUAAUAUCCACACAUUCCAUCUGGAAUUCUCGGGUGCCAA", "RBNS enrichment (R)": 0.226}
{"Strand": "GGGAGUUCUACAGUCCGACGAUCAUCUGAAGAUGAUUGCUUUUCCCUGCUGCCAGCUGAUCUGAAAUGUUUUGCUGGCACAUUAAUCAUAGAUAAAGAAAGAUUGAUGGACUUAGCCCUCAAAUUUCAGUAUCUGGAAUUCUCGGGUGCCAA", "RBNS enrichment (R)": 0.207}
{"Strand": "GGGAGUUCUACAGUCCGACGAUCCCCUAAGGAUUUUCCUUUAAUUUCUCUGGAGUAAUACUGUACCAUACUGGUCUUUGCUUUUAGUAAUAAAACAUCAAAUUAGGUUUGGAGGGAACUUUGAUCUUCCUAAGUGGAAUUCUCGGGUGCCAA", "RBNS enrichment (R)": 0.252}
{"Strand": "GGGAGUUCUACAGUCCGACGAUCUAUUGCUGACCAGUCAGUGUCAUCUCCCGGGUGAAUUUUGAUGUCACGUUAUAGUCAAAUGAGUUAGCUGAUGGUUUCUAGAUUUUCUUCCUCUGAACCAUGAUGCAGUAUGGAAUUCUCGGGUGCCAA", "RBNS enrichment (R)": 0.568}
{"data": "Study 2", "target": "CCNA1, cyclin fold, Cln2 fusion (human)", "technique": "yeast growth competition, sequencing", "sample": "yeast", "setting": "strong parent motif", "baseline": "not given", "reading": "higher = stronger binding", "starting sequence": "RBL2 docking peptide (human); STTRRRLFVENDS; partner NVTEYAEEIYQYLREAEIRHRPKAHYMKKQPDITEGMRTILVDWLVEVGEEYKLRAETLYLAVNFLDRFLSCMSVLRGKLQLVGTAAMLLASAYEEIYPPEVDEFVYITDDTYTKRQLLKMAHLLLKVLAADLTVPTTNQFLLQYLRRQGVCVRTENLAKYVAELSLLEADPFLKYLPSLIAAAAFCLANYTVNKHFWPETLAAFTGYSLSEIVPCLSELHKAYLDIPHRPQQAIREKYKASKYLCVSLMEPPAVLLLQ"}
{"Substitution": "T2I", "normalised enrichment score": 0.441}
{"Substitution": "S13I", "normalised enrichment score": 0.746}
{"Substitution": "S1F", "normalised enrichment score": 0.688}
{"Substitution": "S13P", "normalised enrichment score": 1.04}
{"Substitution": "F8G", "normalised enrichment score": 0.113}
{"Substitution": "R4S", "normalised enrichment score": 0.041}
{"Substitution": "L7N", "normalised enrichment score": 0.034}
{"Substitution": "S13Q", "normalised enrichment score": 0.285}
{"Substitution": "N11G", "normalised enrichment score": 0.65}
{"Substitution": "V9R", "normalised enrichment score": 0.338}
{"Substitution": "E10H", "normalised enrichment score": 0.406}
{"Substitution": "L7H", "normalised enrichment score": 0.152}
{"Substitution": "D12T", "normalised enrichment score": 0.206}
{"Substitution": "N11A", "normalised enrichment score": 0.347}
{"Substitution": "L7K", "normalised enrichment score": 0.185}
{"Substitution": "F8Q", "normalised enrichment score": 0.472}
{"Substitution": "V9W", "normalised enrichment score": 0.764}
{"Substitution": "S13E", "normalised enrichment score": 0.779}
{"Substitution": "T3R", "normalised enrichment score": 0.479}
{"Substitution": "E10M", "normalised enrichment score": 0.584}
{"Substitution": "D12S", "normalised enrichment score": 0.41}
{"Substitution": "N11D", "normalised enrichment score": 0.797}
{"data": "Study 3", "target": "Histone acetyltransferase KAT6A, winged helix 1, GST fusion (KAT6A, Homo sapiens, UniProt Q92794, residues 1-85)", "technique": "protein binding microarray", "form": "double-stranded DNA, one strand shown", "sample": "in vitro", "concentration": "not given", "setting": "8-mer, flanks averaged, mean of 2 arrays, mostly near background", "baseline": "not given", "reading": "higher = stronger binding", "Residues (chain)": "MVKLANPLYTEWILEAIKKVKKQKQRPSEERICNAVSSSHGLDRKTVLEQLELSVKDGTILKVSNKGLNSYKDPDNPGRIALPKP"}
{"Strand": "CCCCGCAA", "E-score": 0.259}
{"Strand": "GGGTATAA", "E-score": 0.0215}
{"Strand": "ACCCTCGA", "E-score": -0.143}
{"Strand": "CGACAATA", "E-score": 0.0612}
{"Strand": "AATAACGG", "E-score": 0.274}
{"Strand": "TGGGCCCA", "E-score": -0.183}
{"Strand": "AAAAGATG", "E-score": -0.0366}
{"Strand": "GCAATGGC", "E-score": 0.0279}
{"Strand": "CGTAGCGA", "E-score": 0.179}
{"Strand": "TAATGATA", "E-score": -0.0151}
{"Strand": "CGCTATTC", "E-score": 0.235}
{"Strand": "GAAAGGCC", "E-score": 0.206}
{"Strand": "GCTAGATA", "E-score": -0.0603}
{"Strand": "GCATCCGC", "E-score": 0.176}
{"Strand": "CTGCAAGA", "E-score": 0.119}
{"Strand": "AGATAGGA", "E-score": -0.0744}
{"Strand": "GGCACAGA", "E-score": 0.0761}
{"Strand": "AGACAACG", "E-score": 0.0162}
{"Strand": "CCTCTTAA", "E-score": -0.0278}
{"Strand": "CTCCTGAA", "E-score": 0.039}
{"Strand": "CGAGAAAC", "E-score": 0.0243}
{"data": "Study 4", "target": "Sal-like protein 4, full length isoform B (SALL4, Homo sapiens, UniProt Q9UJQ4-2, residues 1-616)", "technique": "universal PBM", "form": "double-stranded DNA, one strand shown", "sample": "in vitro", "concentration": "not given", "setting": "8-mer, flanks averaged, mean of replicates", "reading": "higher = stronger binding", "Target sequence (chain)": "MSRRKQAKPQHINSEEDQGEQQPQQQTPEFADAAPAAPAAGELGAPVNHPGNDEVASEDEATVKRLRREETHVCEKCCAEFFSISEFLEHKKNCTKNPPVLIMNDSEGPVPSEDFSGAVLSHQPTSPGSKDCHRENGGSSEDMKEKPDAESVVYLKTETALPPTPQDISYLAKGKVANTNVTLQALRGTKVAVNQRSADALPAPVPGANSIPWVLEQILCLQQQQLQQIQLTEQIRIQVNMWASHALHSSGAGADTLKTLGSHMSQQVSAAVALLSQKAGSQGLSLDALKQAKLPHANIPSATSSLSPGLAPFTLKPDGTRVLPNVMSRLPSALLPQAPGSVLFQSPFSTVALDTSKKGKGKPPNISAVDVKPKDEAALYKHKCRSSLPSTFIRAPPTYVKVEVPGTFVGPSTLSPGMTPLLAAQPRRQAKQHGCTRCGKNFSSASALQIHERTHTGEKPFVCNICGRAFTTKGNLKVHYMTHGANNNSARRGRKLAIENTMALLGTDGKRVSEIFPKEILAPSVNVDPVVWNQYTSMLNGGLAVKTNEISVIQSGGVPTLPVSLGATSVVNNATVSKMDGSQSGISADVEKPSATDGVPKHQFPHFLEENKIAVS"}
{"Strand": "GTGAGCCA", "E-score": -0.00706}
{"Strand": "ATGAAAAT", "E-score": 0.4}
{"Strand": "ACAGCATG", "E-score": -0.118}
{"Strand": "CGGAGAAC", "E-score": -0.129}
{"Strand": "AAGATAAG", "E-score": 0.189}
{"Strand": "ATTCTTTA", "E-score": 0.236}
{"Strand": "AACGGCCG", "E-score": -0.198}
{"Strand": "GTGGTACA", "E-score": -0.00262}
{"Strand": "TATGTGGA", "E-score": 0.192}
{"Strand": "ACCTCAAG", "E-score": -0.143}
{"Strand": "ATAGCGGG", "E-score": -0.00154}
{"Strand": "GCGATGAC", "E-score": -0.165}
{"Strand": "ATCCTGTG", "E-score": 0.0221}
{"Strand": "CGAATATC", "E-score": 0.137}
{"Strand": "GATCACCA", "E-score": -0.0839}
{"Strand": "AACTGACG", "E-score": -0.161}
{"Strand": "GACGCGTC", "E-score": -0.3}
{"Strand": "TTAGCAAA", "E-score": 0.133}
{"Strand": "CCTATCCA", "E-score": -0.0878}
{"Strand": "CAAGGCTC", "E-score": -0.321}
{"Strand": "AAAACGGA", "E-score": -0.0265}
{"Strand": "ACGGGCGA", "E-score": -0.275}
{"Strand": "CACTGCGG", "E-score": -0.208}
{"Strand": "ATGTTGCG", "E-score": 0.073}
{"Strand": "GCGCCCCA", "E-score": -0.386}
{"note": "For quick reference, copied from above (study 1):"}
{"Strand": "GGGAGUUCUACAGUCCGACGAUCCCCCCCAAGCCCCAACAGGAAGAAGGGAAAGGUGGGGAAGCUGACGCUCACUCAGUGCCCACUGGGUGCCAGGCUCUGGGCUCAACCCUCUAAUAUCCACACAUUCCAUCUGGAAUUCUCGGGUGCCAA", "RBNS enrichment (R)": 0.226}
{"Strand": "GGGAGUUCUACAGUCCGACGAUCAUUCUGUUAGAUUUUUUUAUUGGACUUACAUAAUGCCGUUUAUUUGAGAAACACAUAACAUCUCUCCUUUCUAUGAAAAAUUUUUUAAAAGGUGGUUAAAAUUGCCUUUAUGGAAUUCUCGGGUGCCAA", "RBNS enrichment (R)": 0.835}
{"Strand": "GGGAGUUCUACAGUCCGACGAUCAAUUGUAUGCUUUCAGUAUUGUGUUAUAUGUUUCUAUGGCAACUUUGAAGUCAGUGGUUUAGAAAUGAGAUACCAAUGUUAAUGAAAAGUAUGUACUCUUUGCUUUUGCAUGGAAUUCUCGGGUGCCAA", "RBNS enrichment (R)": 4.26}
{"Strand": "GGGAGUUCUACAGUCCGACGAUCAUCUGAAGAUGAUUGCUUUUCCCUGCUGCCAGCUGAUCUGAAAUGUUUUGCUGGCACAUUAAUCAUAGAUAAAGAAAGAUUGAUGGACUUAGCCCUCAAAUUUCAGUAUCUGGAAUUCUCGGGUGCCAA", "RBNS enrichment (R)": 0.207}
{"Strand": "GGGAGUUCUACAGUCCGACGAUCUUGUCCAACACCAGCCCUGACCCAAGUCCAAAUGUUUACAGGGAGCCUCCUGCCUACCCCACUCUCUGCCGCUCGGAGGCCCCAAAGGAAAAAGCACAAGAAGCGUGAGAUGGAAUUCUCGGGUGCCAA", "RBNS enrichment (R)": 0.711}
{"Strand": "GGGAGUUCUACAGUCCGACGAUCCAGGCGUGUCACUUGAGGCCAGGAGUUCGAGACCAGCCUGGCCAACAUGAUGAAACCCCGUCUCUACUACAAAUACAAAAAUUAGCCGGGUGUGGUGGCACACGCCUGUAUGGAAUUCUCGGGUGCCAA", "RBNS enrichment (R)": 0.73}
